Results of several laboratories.
Numbers after ± are the reported error.
Target: mushroom tyrosinase

SMILES | test | conditions | IC50
OCC1CSC(c2ccc(O)c(Br)c2)S1 (stereo not drawn) | enzyme activity, inhibitor, dopachrome absorbance | with: L-tyrosine | 15.6 ± 3.31 µM
COc1ccc(NC(=O)C2C(=O)C(c3ccccc3)c3ccc4c(c32)C(=O)c2ccccc2C4=O)cc1 (stereo not drawn) | inhibitor | with: L-DOPA substrate | 87.3 ± 1.84 µg/mL
COc1cc(OC)c2c(c1)C(=O)c1cc3oc(=O)cc(-c4ccc(Cl)cc4)c3c(O)c1C2=O | enzyme activity | with: L-DOPA | 94.08 ± 0.32 µg/mL
Cc1ccc(NC(=O)C2C(=O)C(c3ccccc3)c3ccc4c(c32)C(=O)c2ccccc2C4=O)cc1 (stereo not drawn) | inhibitor | with: L-DOPA substrate | 13.4 ± 0.24 µg/mL
COc1c2c(cc3oc(=O)cc(-c4ccccc4)c13)C(=O)c1cc(C)cc(O)c1C2=O | enzyme activity | with: L-DOPA | > 100 µg/mL
Oc1ccc(COCc2ccc(O)cc2)cc1 |  | with: L-tyrosine | 378 µM
Cc1cc(O)cc2c1C(=O)c1c(cc3oc(=O)cc(-c4ccc(Cl)cc4)c3c1O)C2=O | enzyme activity | with: L-DOPA | 71.48 ± 0.17 µg/mL
COc1ccc(C2SCC(CO)S2)cc1 (stereo not drawn) | enzyme activity, inhibitor, dopachrome absorbance | with: L-tyrosine | 16.5 ± 2.36 µM
O=C(/C=C/c1ccc(O)cc1)NCCCCN(CCCNC(=O)/C=C/c1ccc(O)cc1)C(=O)/C=C\c1ccc(O)cc1 | enzyme activity, inhibitor | with: L-DOPA | 31.8 µM
COc1ccc(CSCc2ccc(OC)cc2)cc1 |  | with: L-tyrosine | 40 µM
COc1ccc(C2SCC(CO)S2)c(OC)c1 (stereo not drawn) | enzyme activity, inhibitor, dopachrome absorbance | with: L-tyrosine | 27.9 ± 1.47 µM
O=C1c2ccccc2C(=O)c2c1ccc1c2C(C(=O)Nc2ccc(Br)cc2)C(=O)C1c1ccccc1 (stereo not drawn) | inhibitor | with: L-DOPA substrate | 42.6 ± 1.04 µg/mL
